Measurements of several laboratories.
Lines come from different studies, so protocols differ.
UCHL1: Ubiquitin carboxyl-terminal hydrolase isozyme L1 (UCHL1, Homo sapiens, UniProt P09936)
UniProt P09936, sequence (whole entry, looked up): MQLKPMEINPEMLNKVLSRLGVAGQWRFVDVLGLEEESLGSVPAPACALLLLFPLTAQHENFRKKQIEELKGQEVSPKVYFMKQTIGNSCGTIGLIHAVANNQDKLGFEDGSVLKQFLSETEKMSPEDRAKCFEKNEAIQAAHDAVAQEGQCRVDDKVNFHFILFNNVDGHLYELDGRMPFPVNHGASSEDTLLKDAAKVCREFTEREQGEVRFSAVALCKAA

SMILES	tested on	test	system	conditions	scale	quantity	value
CC(=O)N1[C@@H]2CC3C4CC=C5C[C@@H](O)CC[C@]5(C)C4CC[C@]3(C)[C@@]21C(C)=O (some centres unmarked)	UCHL1	covalent, intact protein LC-MS		12.5 µM		labelling	15.2%
Cc1ccc(Sc2ccccc2N2CCNCC2)c(C)c1		TEAE Vomiting	elderly men	oral, 10 mg single dose		adverse event incidence	0%
NCCONC(=O)[C@@H]1CC[C@@H]2CN1C(=O)N2OS(=O)(=O)O		measured: leading to dose reduction	healthy Chinese men	intravenous, 2 g, treatment-related		adverse event incidence	0%
N#CC(C#N)=C(N)C1(C#N)OC1c1ccc(F)cc1 (centres unmarked)	UCHL1	covalent, intact protein LC-MS		12.5 µM		labelling	26.5%
CC(=O)O[C@H]1C(=O)[C@@]2(C)[C@H]([C@H](OC(=O)c3ccccc3)[C@]3(O)C[C@H](OC(=O)[C@H](O)[C@@H](NC(=O)c4ccccc4)c4ccccc4)C(C)=C1C3(C)C)[C@]1(OC(C)=O)CO[C@@H]1C[C@@H]2O		measured: Dysgeusia	patients with advanced solid tumours	intravenous, dose not given, grade 3 and 4, possibly related to drug		adverse event incidence	0%
CC[C@H](C)[C@H](NC(=O)[C@H](Cc1ccccc1)NC(=O)[C@H](CCC(=O)O)NC(=O)[C@H](CCCCNC(=O)COCCOCCNC(=O)COCCOCCNC(=O)CC[C@H](NC(=O)CCCCCCCCCCCCCCCCC(=O)O)C(=O)O)NC(=O)[C@H](C)NC(=O)[C@H](C)NC(=O)[C@H](CCC(N)=O)NC(=O)CNC(=O)[C@H](CCC(=O)O)NC(=O)[C@H](CC(C)C)NC(=O)[C@H](Cc1ccc(O)cc1)NC(=O)[C@H](CO)NC(=O)[C@H](CO)NC(=O)[C@@H](NC(=O)[C@H](CC(=O)O)NC(=O)[C@H](CO)NC(=O)[C@@H](NC(=O)[C@H](Cc1ccccc1)NC(=O)[C@@H](NC(=O)CNC(=O)[C@H](CCC(=O)O)NC(=O)C(C)(C)NC(=O)[C@@H](N)Cc1cnc[nH]1)[C@@H](C)O)[C@@H](C)O)C(C)C)C(=O)N[C@@H](C)C(=O)N[C@@H](Cc1c[nH]c2ccccc12)C(=O)N[C@@H](CC(C)C)C(=O)N[C@H](C(=O)N[C@@H](CCCNC(=N)N)C(=O)NCC(=O)N[C@@H](CCCNC(=N)N)C(=O)NCC(=O)O)C(C)C		measured: Dizziness	type 2 diabetes patients	dose not given	reference: subjects	adverse event incidence	20%
CC(C)n1c(Nc2cccnc2)nc2cnc(Nc3ccc(N4CCN(C)CC4)cc3)nc21		measured: Dizziness	healthy male subjects	oral, 100 mg, with: gemfibrozil		adverse event incidence	0%
FC(F)(F)c1ccc(CNc2ccc(Cc3c[nH]c4ncc(Cl)cc34)cn2)cn1		measured: Nausea	patients with advanced solid tumours	oral, dose not given, grade 1 and 2, possibly related to drug		adverse event incidence	30%
Cc1c(C(=O)O)ccc2c3n(nc12)[C@@H]1[C@H](C3)N(CC2CC2)[C@@]2(C(=O)Nc3cc(Cl)ccc32)[C@H]1c1cccc(Cl)c1F		phase Ia trial, measured: Diarrhea	cancer patients	oral, dose not given, all patients grade ≥3		adverse event incidence	1.9%
CC[C@H](C)CCCCC(=O)N[C@@H](CCN)C(=O)N[C@H](C(=O)N[C@@H](CCN)C(=O)N[C@H]1CCNC(=O)[C@H]([C@@H](C)O)NC(=O)[C@H](CCN)NC(=O)[C@H](CCN)NC(=O)[C@H](CC(C)C)NC(=O)[C@@H](Cc2ccccc2)NC(=O)[C@H](CCN)NC1=O)[C@@H](C)O		measured: oral hypoaesthesia	long-term haemodialysis patients	IV, 0.75 mg/kg		adverse event incidence	85.7%
O=C1CCc2ccc(OCCCCN3CCN(c4cccc(Cl)c4Cl)CC3)cc2N1		measured: Hypotension	genotyped patients, CYP2D6 intermediate metabolizers	dose not given, long-acting oral or depot		adverse event incidence	1.8%

Some of these lines once more:
SMILES	tested on	test	system	conditions	scale	quantity	value
CC[C@H](C)[C@H](NC(=O)[C@H](Cc1ccccc1)NC(=O)[C@H](CCC(=O)O)NC(=O)[C@H](CCCCNC(=O)COCCOCCNC(=O)COCCOCCNC(=O)CC[C@H](NC(=O)CCCCCCCCCCCCCCCCC(=O)O)C(=O)O)NC(=O)[C@H](C)NC(=O)[C@H](C)NC(=O)[C@H](CCC(N)=O)NC(=O)CNC(=O)[C@H](CCC(=O)O)NC(=O)[C@H](CC(C)C)NC(=O)[C@H](Cc1ccc(O)cc1)NC(=O)[C@H](CO)NC(=O)[C@H](CO)NC(=O)[C@@H](NC(=O)[C@H](CC(=O)O)NC(=O)[C@H](CO)NC(=O)[C@@H](NC(=O)[C@H](Cc1ccccc1)NC(=O)[C@@H](NC(=O)CNC(=O)[C@H](CCC(=O)O)NC(=O)C(C)(C)NC(=O)[C@@H](N)Cc1cnc[nH]1)[C@@H](C)O)[C@@H](C)O)C(C)C)C(=O)N[C@@H](C)C(=O)N[C@@H](Cc1c[nH]c2ccccc12)C(=O)N[C@@H](CC(C)C)C(=O)N[C@H](C(=O)N[C@@H](CCCNC(=N)N)C(=O)NCC(=O)N[C@@H](CCCNC(=N)N)C(=O)NCC(=O)O)C(C)C		measured: Dizziness	type 2 diabetes patients	dose not given	reference: subjects	adverse event incidence	20%
